Measured values gathered from unrelated publications.
A part holds a random share of what one study measured.

Sample 1 — technique: aptamer microarray, sandwich; molecule type: DNA with 2'F-ANA; medium: in vitro; tested at: 200 nM; added: Cy3 exosite-II aptamer, 400 nM; reading: higher = stronger binding; strand: GGTTGGTGTGGTTGG
Target: Prothrombin, mature alpha-thrombin (F2, Homo sapiens, UniProt P00734)
Setting: whole 15-mer aptamer, many near background
| Modification | mean fluorescence intensity [a.u.] |
| --- | --- |
| 2'F-ANA at 1 2 8 9 11 13 14 15 | 54.3 |
| 2'F-ANA at 1 3 6 8 12 13 15 | 471 |
| 2'F-ANA at 3 5 8 10 12 14 | 72.5 |
| 2'F-ANA at 1 3 4 5 8 9 12 13 14 15 | 47 |
| 2'F-ANA at 1 5 8 9 10 | 44.7 |
| 2'F-ANA at 1 7 8 9 10 11 13 14 15 | 54.5 |
| 2'F-ANA at 1 2 3 5 8 10 11 13 15 | 48.8 |
| 2'F-ANA at 2 3 4 7 8 9 10 11 14 | 253 |
| 2'F-ANA at 2 3 4 5 7 8 9 11 12 14 | 50.9 |
| 2'F-ANA at 2 5 6 8 12 | 175 |
| 2'F-ANA at 1 2 4 5 7 12 13 14 15 | 124 |
| 2'F-ANA at 2 3 5 6 8 11 12 | 183 |
| 2'F-ANA at 4 5 6 7 10 11 | 49 |
| 2'F-ANA at 1 2 4 6 8 9 12 13 14 | 56.5 |
| 2'F-ANA at 3 4 5 6 10 12 | 56.7 |
| 2'F-ANA at 1 2 4 5 6 8 9 10 11 13 15 | 50.9 |
| 2'F-ANA at 3 5 10 14 15 | 53.3 |
| 2'F-ANA at 1 3 6 10 14 15 | 60.7 |
| 2'F-ANA at 5 6 7 8 10 13 14 15 | 47.6 |
| 2'F-ANA at 3 7 8 9 10 12 13 | 658 |
| 2'F-ANA at 5 9 10 12 13 14 15 | 44.9 |

Sample 2 — technique: universal PBM; molecule type: double-stranded DNA, one strand shown; medium: in vitro; tested at: 600 nM; reading: higher = stronger binding
Target: Sal-like protein 4, full length isoform A (SALL4, Homo sapiens, UniProt Q9UJQ4, residues 1-1053)
UniProt Q9UJQ4, sequence (whole entry, looked up): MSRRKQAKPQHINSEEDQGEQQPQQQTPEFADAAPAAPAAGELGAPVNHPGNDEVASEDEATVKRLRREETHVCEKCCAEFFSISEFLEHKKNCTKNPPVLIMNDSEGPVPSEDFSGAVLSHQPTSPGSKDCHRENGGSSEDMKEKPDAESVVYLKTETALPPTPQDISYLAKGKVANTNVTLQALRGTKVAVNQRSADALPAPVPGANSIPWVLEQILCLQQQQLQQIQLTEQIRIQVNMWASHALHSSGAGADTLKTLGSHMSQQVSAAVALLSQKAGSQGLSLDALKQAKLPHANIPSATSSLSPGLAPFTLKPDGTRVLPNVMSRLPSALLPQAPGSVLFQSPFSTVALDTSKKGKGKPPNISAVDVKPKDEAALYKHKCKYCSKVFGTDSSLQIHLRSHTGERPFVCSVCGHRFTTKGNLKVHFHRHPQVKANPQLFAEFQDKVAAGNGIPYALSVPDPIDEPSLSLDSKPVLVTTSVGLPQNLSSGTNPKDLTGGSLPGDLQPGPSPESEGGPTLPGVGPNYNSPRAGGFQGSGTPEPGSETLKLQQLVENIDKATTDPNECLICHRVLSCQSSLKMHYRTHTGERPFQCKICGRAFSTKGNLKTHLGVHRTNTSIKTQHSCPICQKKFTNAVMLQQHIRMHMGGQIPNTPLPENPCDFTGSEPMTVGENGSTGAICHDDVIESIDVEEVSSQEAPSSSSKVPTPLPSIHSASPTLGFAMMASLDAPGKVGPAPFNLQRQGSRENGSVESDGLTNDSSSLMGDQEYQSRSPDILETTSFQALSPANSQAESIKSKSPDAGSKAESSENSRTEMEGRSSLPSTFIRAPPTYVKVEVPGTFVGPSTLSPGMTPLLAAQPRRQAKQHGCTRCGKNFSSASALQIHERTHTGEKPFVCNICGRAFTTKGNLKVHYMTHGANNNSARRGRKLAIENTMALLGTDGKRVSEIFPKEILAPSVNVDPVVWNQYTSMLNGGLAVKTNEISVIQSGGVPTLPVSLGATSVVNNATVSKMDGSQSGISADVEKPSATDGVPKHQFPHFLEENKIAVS
Setting: 8-mer, flanks averaged, mean of replicates
| Strand | E-score |
| --- | --- |
| ACTGCAGT | -0.21 |
| TCACCCAA | 0.0812 |
| CCTCGGCG | -0.337 |
| GAAACTTA | 0.244 |
| TGACTAAA | 0.174 |
| CAGTAGGA | -0.118 |
| GACCGTAA | 0.0238 |
| CTTTCCGC | -0.243 |
| AACAACCT | -0.00361 |
| ACTAGTTC | 0.14 |
| CGCAGTCC | -0.201 |
| GGGCAATA | 0.115 |
| ACCCCGTC | -0.392 |
| CAGTAAAG | 0.0794 |
| ATGTGCCC | 0.0244 |
| CTGTGTAC | 0.0779 |
| CCGAACAC | -0.0926 |

Sample 3 — technique: RNA Bind-n-Seq; molecule type: RNA; medium: in vitro; tested at: not given; setting: RNA with constant flanks, ends assumed; baseline: input RNA pool; reading: higher = stronger binding
Target: RING finger protein unkempt homolog, zinc fingers 1-6, GST-SBP tag (UNK, Homo sapiens, UniProt Q9C0B0, residues 30-357)
UniProt Q9C0B0, sequence (30-357, looked up): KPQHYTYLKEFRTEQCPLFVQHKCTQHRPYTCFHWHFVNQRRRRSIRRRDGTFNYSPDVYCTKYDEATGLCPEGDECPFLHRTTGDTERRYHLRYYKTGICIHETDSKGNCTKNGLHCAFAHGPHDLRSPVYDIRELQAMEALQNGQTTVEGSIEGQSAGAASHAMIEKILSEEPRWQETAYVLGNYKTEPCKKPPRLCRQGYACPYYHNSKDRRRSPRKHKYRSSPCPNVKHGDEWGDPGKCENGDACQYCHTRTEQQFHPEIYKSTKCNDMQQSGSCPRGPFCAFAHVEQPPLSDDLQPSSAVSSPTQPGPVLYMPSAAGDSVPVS
Constant ends, left off below: GGGAGUUCUACAGUCCGACGAUC … CAACAGAGGAUUGAGCAUCA
| Strand | bound/input enrichment |
| --- | --- |
| GUAUCAAAAGUUUUAUUGUCCAUAUGUUCUCUACUUUGUGAUCCUAAUCCAGAUGACCCCUCCGUACCAGAUAUUGCACAAAUCUAUAAAUCAGACAAAGAAAAAUACAACAGACAUGCA | 0.503 ratio |
| ACUUGACUUCAGGCAGCAGAUUGUCUAGAAGCCUAAGGACAGCAAUUUCUCUGACAAGACAAAGCCGAUAUUUUAUACCAGGGGUUGGCAAACUACUGCCCACGGGCCGAAUUUGGCCCA | 0.259 ratio |
| AGAGGUGCAAAGAAGACUGCAGAAAUGAACGAAAAGCUCUCCAAGAUGGGUGAAAGUUCACUCCGAAACUUUACGAUGGACACAGAGUCCAGUGUUUAUAACUUUGAAGGAGAAGACUAU | 0.154 ratio |
| GCAAUCAGGCUGUAUGAACGAGGUGACGCAUCCAAAGAAGACAUUGACACUGCUAUGAAAUCCGGAGCCGGUUACCCCAUGGGCCCAUUUGAGCUUCUAGAUUAUGUCGGACUGGAUACU | 0.44 ratio |
| GAUACAUACUUAUUUGUGAAUCAUAUCCCUGUAAGUAAGACAAGAAACACUUCCUCAUUCCCGGUACAUAAUACACCAGCUUUAGCUUGUACCGAUUUGUGAGGUGUUAAGAUUUUGAGG | 0.37 ratio |
| CUGGGAACCUCCCAGAGGUCCAGCCCAUCUCGGAGCAUCCCGGAGGAAAUCUGCAGAGGGUCCGGAGUGGGUGACAAGAGCCUGAUCUCUUCCUGUUUUGUACAUAGAUUUAUUUUUCAG | 0.75 ratio |
| CUCACCUAUGAAGUCAUUGGAUUUGCCAAUGUCGUAGUCCCAGACUGUGACCUCCAGGGUCUCCGUGGCCAGAGUGGAGAGUUCAAUCUCAUAGAAGAAUUCCUGAGAACAAAGGCAGGC | 0.254 ratio |
| GGGUGUUUGUGACCACUGCUUUCAGAGAUUCUUACCAUGUAUUCUGUUUUACAAUGUUUUCACCGACUGUUAUGCCAGAAGUUUCCGAUGAUCAAUGUAAUAACCUGUUUUAACUGCCUA | 0.152 ratio |

Sample 4 — technique: RNA Bind-n-Seq; molecule type: RNA; medium: in vitro; tested at: 365 nM; baseline: no-protein control; reading: higher = stronger binding
Target: RNA binding protein fox-1 homolog 2, RRM domain, GST-SBP tag (RBFOX2, Homo sapiens, UniProt O43251-10, residues 100-194)
Setting: natural RNA segment, single round, ends assumed
Constant ends, left off below: GGGAGUUCUACAGUCCGACGAUC … UGGAAUUCUCGGGUGCCAA
Construct (chain): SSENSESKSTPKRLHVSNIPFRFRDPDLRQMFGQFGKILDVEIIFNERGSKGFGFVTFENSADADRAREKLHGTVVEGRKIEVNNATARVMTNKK
| Strand | RBNS enrichment (R) |
| --- | --- |
| AGCACGCACAGACAUACAUGUCGAGAGCGGACUUUAGGCUUUCAUGUGUUAAACCGCUUGAGUUACACCUUGUGACCCUUCUCCCAUAACAUGGUGUGAGGACGGACUGG | 4.04 |
| ACUCCACUGCCACCGUGGUGCCUGGCUUCAGCUCCCCUCCCCCAAUCCCUGCUAAGCCUCUACUCUGCAGGGAGACGCGACUGGCGGCUCCAGCAGGAACUACCUUUCUG | 0.334 |
| AAAUUGACUAAAUAAGGUCAAGGAUAAUGUUUUUCAUUGAUUAACCAUUUAUUAUACAUAUAAUCUAUUGAAUAUAAAAAGAUUCACCUUGAAAUAAUAUUUGACUAUAU | 0.558 |
| CAAUGUUCUGGGUUGUGCAUGAAAUUGGAUCUGUAGACACUGUGGAAACGUUUGAAAGUGUUUGUUUCCUUCAUAUGAACCUGUAAAAUGCUGUGUAGCUGGAGUUCACG | 50.4 |
| CCUCUGCCUCUGGCUCAGGUUGCUCAAAGCACAGAUCCCCUCUUAUCCCUGUCCCCAGGACCGAAACACAUAGCCUCAUUUCAAAGCGUAGCCAGGUUCCCUCUGCUUUC | 0.45 |
| UUUAGGGAGUAGUUUUCAUUCUACAUGAACUGAGGUAAUAUUAUGGUAACUCCAAUAUUUGGUUAAAAAAACUAUACAAAUCAGAAUAGUACUAAAAUACUGUAGAAUUU | 0.386 |
| GGCCAUUUCUGUGGAAGGGGUAGAGGUAGGUGGCACAGAAGAUGGGGCUUUGCGCUUGUAAAUACUGAUAGCACUGGCUUCCUCCAAAGUCCCAACGUUCUAGCACCCCC | 0.42 |
| AGAAUAAAAUGAGAAUUCUUCAGUUAUAUUUUGUACUAUGGUUUAGGGCUAUGACUAAUAUUUCAGGCCAUUUCCGGUGAAAGAAACUUAGUUUUACAAGAAAAACCAUU | 0.538 |

A few entries again (sample 1):
| Modification | mean fluorescence intensity [a.u.] |
| --- | --- |
| 2'F-ANA at 1 2 4 6 8 9 12 13 14 | 56.5 |
| 2'F-ANA at 1 2 4 5 7 12 13 14 15 | 124 |
| 2'F-ANA at 1 7 8 9 10 11 13 14 15 | 54.5 |
| 2'F-ANA at 2 3 4 7 8 9 10 11 14 | 253 |
| 2'F-ANA at 3 7 8 9 10 12 13 | 658 |
